# Experimental data collected from several papers.
# Numbered parts are unrelated; each lists some results of a single study. Changes are numbered by the printed parent chain.

# Series 1
# Target: ABI1, truncated, D143A, DHFR fusion (Arabidopsis thaliana)
# Technique: DHFR PCA, deep sequencing
# Medium: yeast
# Notes: methotrexate growth selection, single substitutions
# With: (+)-ABA 2500 µM
# Reference: wild-type fitted maximum
# Reading: higher = stronger binding
# Starting sequence: PYL1, truncated, DHFR fusion (Arabidopsis thaliana); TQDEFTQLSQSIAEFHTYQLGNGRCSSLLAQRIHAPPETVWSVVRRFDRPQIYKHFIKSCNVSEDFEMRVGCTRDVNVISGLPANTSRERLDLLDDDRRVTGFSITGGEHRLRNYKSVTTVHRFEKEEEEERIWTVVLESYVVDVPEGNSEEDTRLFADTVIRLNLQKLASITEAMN
Change,relative binding score [%]
R49E,92.6
E4D,96.3
V145K,83.9
W41C,14.1
T73V,97.2
E14C,87.9
V62T,91.8
H110V,59.1
D144G,79.3
M68W,94.5
I12K,95.9
N165D,71.1
G23T,99.8
H16A,46.5
I79M,95
F5G,95.5
R99P,49.2
E67A,92.1
A170P,13.3
F157K,0.884
E151P,98.8

# Series 2
# Target: CCNB3, cyclin fold, Cln2 fusion (human)
# Technique: yeast growth competition, sequencing
# Medium: yeast
# Notes: weak parent motif
# Reference: not given
# Reading: higher = stronger binding
# Starting sequence: WEE1 docking peptide (human); HKTFRKLRLFDTP; partner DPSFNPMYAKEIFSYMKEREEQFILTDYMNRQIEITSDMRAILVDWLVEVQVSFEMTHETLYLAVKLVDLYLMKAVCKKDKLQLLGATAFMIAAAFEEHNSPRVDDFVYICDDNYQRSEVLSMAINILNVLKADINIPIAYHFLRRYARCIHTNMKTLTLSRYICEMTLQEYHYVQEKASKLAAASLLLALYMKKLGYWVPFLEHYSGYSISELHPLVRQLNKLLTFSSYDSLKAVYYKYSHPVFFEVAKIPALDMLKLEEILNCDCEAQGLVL
Change,normalised enrichment score
HKTFPKLRLFDTP [R5P],-0.104
HKTFKKLRLFDTP [R5K],-0.00539
HKTFRKLTLFDTP [R8T],0.297
HKEFRKLRLFDTP [T3E],-0.203
HKTFMKLRLFDTP [R5M],0.315
HKTFRKLRLFDTI [P13I],-0.119
HKTFRQLRLFDTP [K6Q],0.391
AKTFRKLRLFDTP [H1A],-0.123
HKCFRKLRLFDTP [T3C],-0.0148
HKDFRKLRLFDTP [T3D],-0.0737
HKTFRKLRMFDTP [L9M],-0.0969
HKTFRKLRLFDQP [T12Q],0.107
HKTGRKLRLFDTP [F4G],-0.000125
MKTFRKLRLFDTP [H1M],0.378
HKTFRKLRLFDEP [T12E],0.406
HKTFRKLRLFDTY [P13Y],0.00493
NKTFRKLRLFDTP [H1N],0.171
HKTFRKLRLLDTP [F10L],-0.182
HKTFRILRLFDTP [K6I],0.404
HKTFRKFRLFDTP [L7F],0.0688
WKTFRKLRLFDTP [H1W],0.488
HKTTRKLRLFDTP [F4T],0.387
HPTFRKLRLFDTP [K2P],0.18
HKTFRKLLLFDTP [R8L],0.407
HKTFRKLRLFFTP [D11F],0.494

# Series 3
# Target: ATP-dependent RNA helicase DDX3X, helicase core (DDX3X, Homo sapiens, UniProt O00571, residues 132-607)
# UniProt O00571, sequence (132-607, looked up): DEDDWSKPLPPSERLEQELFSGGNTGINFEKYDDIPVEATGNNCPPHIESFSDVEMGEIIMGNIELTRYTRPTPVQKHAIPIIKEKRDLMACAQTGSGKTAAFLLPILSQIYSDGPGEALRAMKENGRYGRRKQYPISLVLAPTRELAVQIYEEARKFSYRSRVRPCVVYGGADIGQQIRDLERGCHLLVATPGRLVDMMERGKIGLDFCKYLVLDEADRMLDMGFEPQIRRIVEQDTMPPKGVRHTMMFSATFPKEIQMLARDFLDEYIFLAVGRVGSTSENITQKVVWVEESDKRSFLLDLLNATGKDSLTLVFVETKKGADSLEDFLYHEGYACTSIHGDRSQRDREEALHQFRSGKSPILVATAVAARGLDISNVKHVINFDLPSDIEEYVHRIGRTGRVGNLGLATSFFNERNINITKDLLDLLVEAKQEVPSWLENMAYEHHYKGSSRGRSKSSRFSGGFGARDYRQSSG
# Technique: RNA Bind-n-Seq
# Molecule type: RNA
# Medium: in vitro
# Concentration: not given
# Notes: 4-mer, random 30-nt RNA, single round
# With: RocA, ADP, phosphate
# Reference: input library
# Reading: higher = stronger binding
Oligonucleotide,4-mer enrichment [fold]
UACC,0.713
GGCG,1.11
CUAG,0.794
CGAU,0.71
UGCG,0.873
AAUA,1.02
GUAU,1.03
GGCA,0.838
CUUC,0.646
AUAA,0.965
GUCU,0.865
CAGA,0.926
GCUU,0.73
AGGC,0.897
UAGA,1.05
CAUG,0.84
GACU,0.715
GGAC,0.865
AUAC,0.721
CGUG,1.03

# Series 4
# Target: UBE2Q2 UBC core domain (UniProt Q8WVN8)
# UniProt Q8WVN8, sequence (whole entry, looked up): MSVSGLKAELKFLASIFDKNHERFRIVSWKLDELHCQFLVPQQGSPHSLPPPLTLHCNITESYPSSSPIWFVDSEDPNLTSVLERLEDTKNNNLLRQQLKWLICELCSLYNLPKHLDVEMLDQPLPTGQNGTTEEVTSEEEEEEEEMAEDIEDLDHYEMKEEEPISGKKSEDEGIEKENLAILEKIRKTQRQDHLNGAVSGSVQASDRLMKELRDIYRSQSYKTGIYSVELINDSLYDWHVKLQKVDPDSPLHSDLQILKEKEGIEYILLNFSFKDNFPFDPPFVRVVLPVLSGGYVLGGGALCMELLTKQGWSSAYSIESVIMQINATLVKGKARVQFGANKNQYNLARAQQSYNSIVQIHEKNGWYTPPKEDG
# Technique: yeast two-hybrid
# Medium: yeast
# Notes: mostly zero background
# Reference: not given
# Reading: higher = stronger interaction
# B1: TRIM8 RING domain (UniProt Q9BZR9); chain WKNCFEEELICPICLHVFVEPVQLPCKHNFCRGCIGEAWAKDSGLVRCPECNQAYNQKPGLE
# B2: UHRF2 RING domain (UniProt Q96PU4); chain CGGDPEKKCHSCSCRVCGGKHEPNMQLLCDECNVAYHIYCLNPPLDKVPEEEYWYCPSCKTDSSEVVKAGER
# B3: TRIM69 RING domain (UniProt Q86WT6); chain VIQDITMELHCPLCNDWFRDPLMLSCGHNFCEACIQDFWRLQAKETFCPECKMLCQYNNCTF
# B4: TRIM72 RING domain (UniProt Q6ZMU5); chain APGLLHQELSCPLCLQLFDAPVTAECGHSFCRACLGRVAGEPAADGTVLCPCCQAPTRPQALST
# B5: RC3H2 RING domain (UniProt Q9HBD1); chain QAAQWTEFLSCPICYNEFDENVHKPISLGCSHTVCKTCLNKLHRKACPFDQTAINTDIDVL
# B6: ARK2C RING domain (UniProt Q6ZSG1); chain EGEESDTDEKCTICLSMLEDGEDVRRLPCMHLFHQLCVDQWLAMSKKCPICRVDIETQLGAD
# B7: IRF2BPL RING domain (UniProt Q9H1B7); chain SPMANSGPLCCTICHERLEDTHFVQCPSVPSHKFCFPCSRESIKAQGATGEVYCPSGEKCPLVGSNVP
Molecule,lacZ reporter activity
KTLSRFGIQPCSICLGDAKDPVCLPCDHVHCLRCLRAWFASEQMICPYCLTALPDEFSPA (RNF213 RING domain (UniProt Q63HN8)),0
B1 (TRIM8 RING domain),0
B2 (UHRF2 RING domain),0
B3 (TRIM69 RING domain),0
B4 (TRIM72 RING domain),0
QLQDIKEQTMCPVCLDRLKNMIFLCGHGTCQLCGDRMSECPICRKAIERRILLY (MIB1 RING domain (UniProt Q86YT6)),0
FASPPDSNFVCSVCHGVLKRPARLPCSHIFCKKCILRWLARQKTCPCCRKEVKRKKVVH (RNF151 RING domain (UniProt Q2KHN1)),0
QLRRLQEERTCKVCMDKEVSVVFIPCGHLVVCQECAPSLRKCPICRGIIKGTVRTF (BIRC2 RING domain (UniProt Q13490)),0
DAIPSLSECQCGICMEILVEPVTLPCNHTLCKPCFQSTVEKASLCCPFCRRRVSSWTRYH (RNF168 RING domain (UniProt Q8IYW5)),0
B5 (RC3H2 RING domain),0
B6 (ARK2C RING domain),0
DDENSDNSNECVVCLSDLRDTLILPCRHLCLCTSCADTLRYQANNCPICRLPFRALLQIR (MGRN1 RING domain (UniProt O60291)),0
B7 (IRF2BPL RING domain),0

# Excerpt of the above (series 1):
Change,relative binding score [%]
R49E,92.6
E4D,96.3
V145K,83.9
W41C,14.1
T73V,97.2
E14C,87.9
V62T,91.8
H110V,59.1
